Experimental data collected from several papers.
Each line is one published result; not all experiments were run side by side. ± gives the spread as reported.
Cell line: HepG2

SMILES	assay	test system	conditions	scale	endpoint	value
O=C(O)c1cccc(CP(=O)(O)O)n1	lysosome integrity, neutral red uptake	–	24 h, without 10% FBS	–	EC50	> 250 µg/mL
NC(=O)c1cc(-c2ccsc2)ccc1OCCc1cc(F)cc(F)c1	–	–	3 (unit not given), glucose medium	–	CC50	28 ± 15 µM
CC1CCN(C(=O)c2cccc(NC(=O)Nc3ccc(N)cc3)c2)CC1	cell growth or viability, MTT	–	100 µM	–	viability	85.7%
O[Si](CCCN1CCCCC1)(c1ccc(F)cc1)C1CCCCC1 (centres unmarked)	cell growth or viability	–	72 h	–	IC50	34.8 µM
C#Cc1cc(/C=N/NC(=O)CCl)c2nccn2c1	cell growth or viability, ATP luminescence	–	24 h	–	IC50	33.9 µM
Nc1ccccc1C(=O)OCC#CCOC(=O)c1ccccc1N	MTT	–	72 h	–	IC50	> 50 µM
C#CCOc1ccc(-c2nc(C)c(C(=O)OCC)s2)cc1/C=N/NC(=O)C=C	cell growth or viability, ATP luminescence	–	24 h	–	IC50	54.5 µM
NC(=O)c1cc(C2=CCOC2)ccc1OCCc1cccc(F)c1	–	galactose medium	3 (unit not given)	–	CC50	29 ± 4 µM
Cc1ccccc1S(=O)(=O)N1CCCC2(C1)Nc1cccnc1N=C2NC1CCCC1 (centres unmarked)	–	–	72 (unit not given)	–	CC50	73.8 µM
NC(=O)c1cc(-c2ccoc2)ccc1OCCc1cccc(F)c1	–	galactose medium	3 (unit not given)	–	CC50	37 ± 9.5 µM
C#Cc1ccc(N2CCOCC2)c(/C=N/NC(=O)CCl)c1	cell growth or viability, ATP luminescence	–	24 h	–	IC50	1.5 µM
NC(=O)c1cc(-c2ccco2)ccc1OCCc1cccc(F)c1	–	–	3 (unit not given)	baseline: CC50 glucose over CC50 galactose	selectivity ratio	< 1
CC[C@H](C)[C@H](NC(=O)[C@H](CCCN)NC(=O)[C@H](CCCNC(=N)N)NC(=O)[C@@H]1CCCN1C(=O)[C@@H]1CCCN1C(=O)[C@H](CCCNC(=N)N)NC(=O)[C@@H]1CCCN1C(=O)[C@H](CCCNC(=N)N)NC(=O)[C@@H]1CCCN1C(=O)[C@H](CC(C)C)NC(=O)[C@H](Cc1ccc(O)cc1)NC(=O)[C@@H]1CCCN1C(=O)[C@@H]1CCCN1C(=O)[C@H](CCCCN)NC(=O)[C@H](CC(=O)O)NC(=O)[C@@H](N)C(C)C)C(=O)N[C@@H](Cc1ccc(O)cc1)C(=O)N[C@@H](CC(N)=O)C(=O)N[C@@H](CCCN)C(N)=O	MTT	–	concentration not given, DMEM/F12 with FBS	–	viability	not toxic
CC1CCN(C(=O)c2cccc(NC(=O)Nc3ccccc3)c2)CC1	cell growth or viability, MTT	–	100 µM	–	viability	74.9%

Some of these lines once more:
SMILES	assay	test system	conditions	scale	endpoint	value
CC[C@H](C)[C@H](NC(=O)[C@H](CCCN)NC(=O)[C@H](CCCNC(=N)N)NC(=O)[C@@H]1CCCN1C(=O)[C@@H]1CCCN1C(=O)[C@H](CCCNC(=N)N)NC(=O)[C@@H]1CCCN1C(=O)[C@H](CCCNC(=N)N)NC(=O)[C@@H]1CCCN1C(=O)[C@H](CC(C)C)NC(=O)[C@H](Cc1ccc(O)cc1)NC(=O)[C@@H]1CCCN1C(=O)[C@@H]1CCCN1C(=O)[C@H](CCCCN)NC(=O)[C@H](CC(=O)O)NC(=O)[C@@H](N)C(C)C)C(=O)N[C@@H](Cc1ccc(O)cc1)C(=O)N[C@@H](CC(N)=O)C(=O)N[C@@H](CCCN)C(N)=O	MTT	–	concentration not given, DMEM/F12 with FBS	–	viability	not toxic
Nc1ccccc1C(=O)OCC#CCOC(=O)c1ccccc1N	MTT	–	72 h	–	IC50	> 50 µM
